Experimental data pooled from the literature.
A part holds a random share of what one study measured.
Chain of UniProt Q9BRS2 (whole entry, looked up): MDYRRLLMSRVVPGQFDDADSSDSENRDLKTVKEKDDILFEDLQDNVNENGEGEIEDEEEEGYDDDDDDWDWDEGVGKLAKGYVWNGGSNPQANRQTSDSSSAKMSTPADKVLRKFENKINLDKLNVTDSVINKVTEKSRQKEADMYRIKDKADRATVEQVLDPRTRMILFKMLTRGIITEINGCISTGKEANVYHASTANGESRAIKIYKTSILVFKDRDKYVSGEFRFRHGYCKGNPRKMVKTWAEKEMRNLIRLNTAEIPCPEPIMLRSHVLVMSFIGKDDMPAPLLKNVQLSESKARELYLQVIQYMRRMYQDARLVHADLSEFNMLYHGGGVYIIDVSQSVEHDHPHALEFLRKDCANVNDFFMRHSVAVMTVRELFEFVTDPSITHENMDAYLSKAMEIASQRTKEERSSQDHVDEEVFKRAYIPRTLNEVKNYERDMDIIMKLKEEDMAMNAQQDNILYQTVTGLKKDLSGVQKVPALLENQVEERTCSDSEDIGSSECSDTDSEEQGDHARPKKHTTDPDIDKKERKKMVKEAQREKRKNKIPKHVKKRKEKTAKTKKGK
Chain of UniProt P42336 (whole entry, unmodified, looked up): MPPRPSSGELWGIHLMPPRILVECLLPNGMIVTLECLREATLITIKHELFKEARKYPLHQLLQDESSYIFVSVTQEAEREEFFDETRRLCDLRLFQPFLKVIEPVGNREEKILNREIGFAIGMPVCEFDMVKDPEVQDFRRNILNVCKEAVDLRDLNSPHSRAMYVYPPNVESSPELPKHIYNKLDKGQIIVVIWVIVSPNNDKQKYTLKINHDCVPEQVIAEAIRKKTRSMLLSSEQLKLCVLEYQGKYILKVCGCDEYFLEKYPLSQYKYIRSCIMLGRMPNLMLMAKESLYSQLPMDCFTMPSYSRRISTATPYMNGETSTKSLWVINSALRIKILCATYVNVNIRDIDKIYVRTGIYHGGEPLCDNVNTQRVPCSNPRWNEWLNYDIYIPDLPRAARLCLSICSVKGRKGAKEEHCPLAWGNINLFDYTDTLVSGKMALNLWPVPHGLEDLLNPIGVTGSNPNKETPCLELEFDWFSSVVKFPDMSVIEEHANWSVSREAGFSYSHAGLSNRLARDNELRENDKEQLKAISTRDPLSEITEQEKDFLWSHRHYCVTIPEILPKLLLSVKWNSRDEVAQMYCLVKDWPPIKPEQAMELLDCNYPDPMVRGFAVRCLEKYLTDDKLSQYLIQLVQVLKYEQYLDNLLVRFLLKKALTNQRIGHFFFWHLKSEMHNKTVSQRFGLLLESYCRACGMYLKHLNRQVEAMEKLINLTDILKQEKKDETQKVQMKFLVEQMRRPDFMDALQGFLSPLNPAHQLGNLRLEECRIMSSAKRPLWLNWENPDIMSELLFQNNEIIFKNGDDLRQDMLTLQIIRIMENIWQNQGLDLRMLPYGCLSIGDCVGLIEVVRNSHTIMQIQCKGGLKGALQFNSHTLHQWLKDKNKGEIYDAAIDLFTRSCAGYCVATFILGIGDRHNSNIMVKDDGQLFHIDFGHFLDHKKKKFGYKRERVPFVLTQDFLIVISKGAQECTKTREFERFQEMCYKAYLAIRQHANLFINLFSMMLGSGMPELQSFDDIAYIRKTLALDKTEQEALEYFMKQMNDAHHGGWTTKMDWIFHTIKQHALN
Chain of UniProt Q5S007 (whole entry, looked up): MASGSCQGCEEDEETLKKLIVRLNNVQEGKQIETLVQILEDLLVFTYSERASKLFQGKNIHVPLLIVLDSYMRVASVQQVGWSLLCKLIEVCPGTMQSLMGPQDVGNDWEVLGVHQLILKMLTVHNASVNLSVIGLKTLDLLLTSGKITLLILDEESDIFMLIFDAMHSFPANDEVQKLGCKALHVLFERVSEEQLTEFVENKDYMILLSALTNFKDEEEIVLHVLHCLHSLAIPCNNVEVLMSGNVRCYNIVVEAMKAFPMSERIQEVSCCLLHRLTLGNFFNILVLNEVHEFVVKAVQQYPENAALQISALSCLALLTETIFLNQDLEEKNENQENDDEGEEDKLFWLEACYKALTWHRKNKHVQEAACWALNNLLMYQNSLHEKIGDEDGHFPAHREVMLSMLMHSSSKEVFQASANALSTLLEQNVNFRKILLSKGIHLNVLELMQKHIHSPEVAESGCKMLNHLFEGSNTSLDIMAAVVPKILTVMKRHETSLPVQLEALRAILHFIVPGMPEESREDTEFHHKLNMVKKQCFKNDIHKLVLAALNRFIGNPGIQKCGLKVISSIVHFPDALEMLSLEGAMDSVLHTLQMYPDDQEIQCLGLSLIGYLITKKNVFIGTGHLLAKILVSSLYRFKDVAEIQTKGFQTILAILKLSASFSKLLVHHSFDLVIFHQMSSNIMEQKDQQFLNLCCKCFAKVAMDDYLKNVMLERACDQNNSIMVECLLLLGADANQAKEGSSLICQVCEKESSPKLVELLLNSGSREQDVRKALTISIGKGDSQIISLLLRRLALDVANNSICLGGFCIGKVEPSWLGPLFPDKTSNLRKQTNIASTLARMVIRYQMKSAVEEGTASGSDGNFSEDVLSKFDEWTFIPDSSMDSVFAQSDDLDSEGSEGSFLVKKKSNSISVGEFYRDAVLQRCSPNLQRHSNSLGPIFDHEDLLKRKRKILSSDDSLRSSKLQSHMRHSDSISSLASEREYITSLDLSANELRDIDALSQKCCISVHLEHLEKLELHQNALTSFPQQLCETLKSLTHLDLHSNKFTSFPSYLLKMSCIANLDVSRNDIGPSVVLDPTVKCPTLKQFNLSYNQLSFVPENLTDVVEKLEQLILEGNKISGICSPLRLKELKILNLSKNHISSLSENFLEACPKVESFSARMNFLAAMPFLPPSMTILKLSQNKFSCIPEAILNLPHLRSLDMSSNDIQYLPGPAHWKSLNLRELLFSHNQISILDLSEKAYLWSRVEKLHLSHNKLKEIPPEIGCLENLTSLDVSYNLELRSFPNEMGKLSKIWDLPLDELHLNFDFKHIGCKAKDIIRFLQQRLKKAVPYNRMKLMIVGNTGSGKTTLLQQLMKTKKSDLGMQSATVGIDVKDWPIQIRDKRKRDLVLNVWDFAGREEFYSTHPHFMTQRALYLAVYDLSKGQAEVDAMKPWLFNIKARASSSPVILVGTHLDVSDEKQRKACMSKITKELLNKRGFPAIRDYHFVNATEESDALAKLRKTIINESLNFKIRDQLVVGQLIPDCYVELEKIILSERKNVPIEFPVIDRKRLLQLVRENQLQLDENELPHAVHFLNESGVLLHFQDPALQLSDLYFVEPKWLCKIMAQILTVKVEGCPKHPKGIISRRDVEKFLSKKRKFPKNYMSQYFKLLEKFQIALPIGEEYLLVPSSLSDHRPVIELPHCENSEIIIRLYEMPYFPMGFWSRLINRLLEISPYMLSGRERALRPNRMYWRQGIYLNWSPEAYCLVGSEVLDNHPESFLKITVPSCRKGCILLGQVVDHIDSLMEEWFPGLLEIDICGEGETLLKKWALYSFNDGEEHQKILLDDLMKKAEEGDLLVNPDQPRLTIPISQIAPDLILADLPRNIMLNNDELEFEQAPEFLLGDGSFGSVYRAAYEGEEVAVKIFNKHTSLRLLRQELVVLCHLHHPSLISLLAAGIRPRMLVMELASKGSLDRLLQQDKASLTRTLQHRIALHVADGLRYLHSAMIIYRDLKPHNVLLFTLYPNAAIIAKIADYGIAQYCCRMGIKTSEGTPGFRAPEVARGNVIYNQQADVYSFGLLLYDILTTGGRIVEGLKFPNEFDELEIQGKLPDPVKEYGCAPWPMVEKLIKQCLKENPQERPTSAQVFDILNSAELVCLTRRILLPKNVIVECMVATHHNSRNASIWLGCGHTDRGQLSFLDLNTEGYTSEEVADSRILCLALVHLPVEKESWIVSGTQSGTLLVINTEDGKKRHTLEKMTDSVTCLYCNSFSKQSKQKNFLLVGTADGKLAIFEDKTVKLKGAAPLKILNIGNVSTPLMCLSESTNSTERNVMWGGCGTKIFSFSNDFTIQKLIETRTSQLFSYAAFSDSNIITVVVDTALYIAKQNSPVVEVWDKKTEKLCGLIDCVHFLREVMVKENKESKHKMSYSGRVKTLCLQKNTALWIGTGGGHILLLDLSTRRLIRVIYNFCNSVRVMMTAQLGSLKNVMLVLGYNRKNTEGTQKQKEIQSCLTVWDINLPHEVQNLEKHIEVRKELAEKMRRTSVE
Chain of UniProt Q96RR4 (whole entry, looked up): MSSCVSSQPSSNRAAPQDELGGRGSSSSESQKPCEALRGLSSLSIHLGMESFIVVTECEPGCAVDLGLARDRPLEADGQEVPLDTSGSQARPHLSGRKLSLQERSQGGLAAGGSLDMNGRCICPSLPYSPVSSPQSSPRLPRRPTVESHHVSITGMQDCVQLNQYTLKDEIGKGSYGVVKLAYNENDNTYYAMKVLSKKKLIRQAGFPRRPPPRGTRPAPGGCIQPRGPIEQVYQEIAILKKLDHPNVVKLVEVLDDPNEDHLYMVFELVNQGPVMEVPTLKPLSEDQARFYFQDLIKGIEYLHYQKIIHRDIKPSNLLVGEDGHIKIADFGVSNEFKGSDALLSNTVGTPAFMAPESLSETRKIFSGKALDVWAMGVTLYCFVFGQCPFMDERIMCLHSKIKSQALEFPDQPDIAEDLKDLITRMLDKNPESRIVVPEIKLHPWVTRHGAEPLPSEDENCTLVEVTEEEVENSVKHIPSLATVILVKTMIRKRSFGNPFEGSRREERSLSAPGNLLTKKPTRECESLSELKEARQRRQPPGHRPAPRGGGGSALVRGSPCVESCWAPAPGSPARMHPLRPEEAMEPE

Sample 1 — effect on: ligand displacement; technique: radioligand; concentration: 10 µM
Target: 5-hydroxytryptamine receptor 1D (HTR1D, Homo sapiens, UniProt P28221)
Chain of UniProt P28221 (whole entry, looked up): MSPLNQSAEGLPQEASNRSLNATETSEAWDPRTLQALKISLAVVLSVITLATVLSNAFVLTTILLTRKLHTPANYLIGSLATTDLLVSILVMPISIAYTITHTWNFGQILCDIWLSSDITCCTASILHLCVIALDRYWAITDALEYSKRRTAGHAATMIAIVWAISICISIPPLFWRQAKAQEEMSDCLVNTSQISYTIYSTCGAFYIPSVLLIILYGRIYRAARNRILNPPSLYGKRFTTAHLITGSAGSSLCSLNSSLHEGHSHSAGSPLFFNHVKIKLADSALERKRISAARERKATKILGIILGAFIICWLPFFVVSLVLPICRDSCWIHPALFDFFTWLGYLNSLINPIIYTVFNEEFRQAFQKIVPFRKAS
| Compound | inhibition [%] |
| --- | --- |
| C[C@@H]1CN(c2cc(-c3nn(C)c4ccc(OC5(C)CC5)cc34)ncn2)C[C@H](C)O1 | 4.11 |
| CNCc1ccccc1-c1csc([C@@H](C)Nc2nc(C)nc3cc(OC)c(OC)cc23)c1 | 98.1 |
| COc1ccc2cc(OCC3(C(=O)O)CN(C(=O)c4ccc(F)cc4)C3)ccc2c1 | -24 |
| O=C([C@H]1C[C@H](O)CN1c1ccc(Cl)cc1)N1CC2COCC(C1)N2Cc1ccc(Cl)cc1 | -7.5 |
| O=C(NC[C@@H]1[C@H]2CN(C(=O)OCc3cc(C(F)(F)F)cc(C(F)(F)F)c3)C[C@@H]12)c1ccc2[nH]nnc2c1 | 43.2 |
| Cc1nccc(COC(=O)N2C[C@@H]3[C@@H](CNC(=O)c4ccc5[nH]nnc5c4)[C@@H]3C2)n1 | 23 |
| CC(=O)Nc1c(C(C)=O)c(=O)n(C)c2nc(-c3ccc(Cl)cc3Cl)c(-c3ccc(Cl)cc3)cc12 | 32.9 |
| NS(=O)(=O)c1cc(NC(=O)C2(c3ccccc3Cl)CC2)ccc1Oc1cccc(Cl)c1 | 6.75 |
| Cc1c[nH]c2nccc(Oc3c(F)cc(Nc4cc(Cl)nc(N)n4)cc3F)c12 | 45 |
| CCS(=O)(=O)c1cc2cc(C[C@](O)(CC(C)(C)c3ccc(F)cc3C(N)=O)C(F)(F)F)[nH]c2cn1 | 5.54 |
| CC(=O)C1=C(C)N(c2cccc(C(F)(F)F)c2)C(=O)N[C@@H]1c1ccc(C#N)nc1 | 10.9 |
| CN([C@@H]1CCc2c(CC(=O)O)c3ccccc3n2C1)S(=O)(=O)c1ccc(F)cc1 | -6.39 |
| Cc1cnc(-c2cc(Cl)ccc2F)cc1-n1c(=O)n(CC(N)=O)c2cnccc21 | 5.53 |
| Cn1cc(Cl)c2c(Oc3c(F)cc(Nc4cc(Cl)nc(N)n4)cc3F)ccnc21 | -5.84 |
| CN([C@@H]1CCc2c(CC(=O)O)c3cc(S(C)(=O)=O)ccc3n2C1)S(=O)(=O)c1ccc(F)cc1 | 0.54 |
| CCCCN(CCCC)C(=O)CN1C[C@H](c2cc(OC)c3c(c2)OCO3)[C@@H](C(=O)O)[C@@H]1CC(C)(C)CCC | -13.8 |
| O=C(c1ccc(F)cc1)N1CC(COc2ccc(Br)cc2)(C(=O)O)C1 | -24.9 |
| Cc1nc(Cc2cccc(C(F)(F)F)c2)sc1-c1ccc(C(N)=O)nc1 | 8.49 |
| CCNC(=O)c1cc2c(N3CCOC[C@@H]3C)ccnc2[nH]1 | -7.56 |
| O=C(NS(=O)(=O)c1ccc(NCC2CCOCC2)c([N+](=O)[O-])c1)c1ccc(N2CCN(Cc3ccc(C(F)(F)F)cc3-c3ccc(Cl)cc3)CC2)cc1Oc1cnc2[nH]ccc2c1 | -6.27 |

Sample 2 — technique: competitive binding panel; concentration: 1 µM; reference: vehicle
Compound: Cc1ccc(NC(=O)c2ccnc(C(F)(F)F)c2)cc1-c1cc(OCCO)nc(N2CCOCC2)c1
| target | remaining binding |
| --- | --- |
| CLK1 (Homo sapiens, UniProt P49759) | 92% |
| LRRK2 (Homo sapiens, UniProt Q5S007) | 100% |
| TTK (Homo sapiens, UniProt P33981) | 100% |
| CAMKK2 (Homo sapiens, UniProt Q96RR4) | 98% |
| RIOK1 (Homo sapiens, UniProt Q9BRS2) | 98% |
| KIT (Homo sapiens, UniProt P10721, T670I/V559D) | 100% |
| PIK3CA (Homo sapiens, UniProt P42336, Q546K) | 80% |

Sample 3 — host: mouse; medium: microsomes or S9; concentration: 2 µM; time: 0.5 h
| SMILES | remaining compound |
| --- | --- |
| CC1(C)CC(=O)c2c(O)cc(OCC(=O)N3CCN(C(=O)C4COc5ccccc5O4)CC3)cc2O1 (stereo not shown) | 2.79% |
| CCOC(=O)Cn1c2c(c(=N)c3c1CCC3)CCC2 | 92.2% |
| COc1ccc(Cc2nc(-c3ccc(=O)[nH]c3)no2)cc1Cl | 18% |
| Cc1nn(-c2nnn(CC(=O)O)n2)c(C)c1Br | 98.7% |
| O=C(Nc1ccc(/C=C/C(=O)N2CCC[C@H]2C(=O)O)cc1)Nc1ccccc1Br | > 99% |
| O=C(c1cc2ncccn2n1)N(c1ccccc1)c1ccccc1 | 0.0627% |
| Cc1cccc(OCCn2cnc3c(cnn3-c3cccc(C(F)(F)F)c3)c2=O)c1 | 96.3% |
| O=C(O)c1ccc(C2(c3ccc(C(=O)O)cc3)OC(=O)c3ccccc32)cc1 | 89.1% |
| CCOc1ccc(/N=C2\Nc3cccc4cccc2c34)cc1 | 0.0721% |
| CCC(C)(C)Nc1[nH]c2c(Cl)cc(C)cc2c(=O)c1C(C)=O | 0.659% |
| Cc1cnc(C2=NC(C)(C(C)C)C(=O)N2)c(C(O)C(=O)N(C)c2ccc(Cl)c(Cl)c2)c1 (stereo not shown) | 6.13% |

Sample 4 — effect on: acetyl-histone H4 peptide binding; technique: AlphaScreen displacement; concentration: 50 µM
Target: Bromodomain-containing protein 4, BD1 (BRD4, Homo sapiens, UniProt O60885)
| SMILES | inhibition |
| --- | --- |
| COc1ccc(COc2ccc(Cc3cnc(N)nc3N)cc2OC)cc1 | 24.7% |
| CCOc1ccc(-c2csc3nc[nH]c(=O)c23)cc1 | 11.9% |
| CCn1c(SCCC(=O)O)nc2c1c(=O)[nH]c(=O)n2C | -3.55% |
| O=C(CSc1ccc2nnc(-c3cccc(F)c3)n2n1)N1CCCC1 | 15.3% |
| O=C(NCc1cccnc1)c1n[nH]c2ccccc12 | -4.55% |
| O=C(CSc1ccc2nnc(-c3ccc(Cl)cc3)n2n1)NCC1CCCO1 (stereo not shown) | 0.9% |
| O=[N+]([O-])c1cnc(Nc2cccc(Cl)c2)nc1Nc1cccc(Cl)c1 | 40.8% |
| Clc1ccc(-c2nnc3ccc(SCc4cccnc4)nn23)cc1 | 9.9% |
| O=c1cc(N2CCOCC2)oc2c1ccc1ccccc12 | 11.8% |
| CC(C)(C)OC(=O)N1CCc2nc(Nc3ccc(F)cc3)ncc2C1 | 11.6% |
| Fc1cccc(-c2nnc3ccc(SCc4ccccn4)nn23)c1 | 24.4% |
| Fc1ccc(-c2[nH]c3ncccc3c2CN2CCOCC2)cc1 | 6.3% |
| CCCOc1ccc(-c2csc3nc[nH]c(=O)c23)cc1 | 8.05% |
| CN1CCN(c2nccn3c(-c4ccoc4)cnc23)CC1 | 17.4% |
